# Measurements gathered from unrelated publications.
# Numbered parts are unrelated; each lists some results of a single study. Substitutions count along the parent as printed.

# Sample 1 — method: protein-binding microarray; form: double-stranded DNA, one strand shown; matrix: in vitro; tested at: not given; reading: higher = stronger binding
# Target: Hepatocyte nuclear factor 3-beta, forkhead domain (FOXA2, Homo sapiens, UniProt Q9Y261, residues 142-269)
# Setting: k-mer, scored over probes, only values ≥0.25
# Target sequence (chain): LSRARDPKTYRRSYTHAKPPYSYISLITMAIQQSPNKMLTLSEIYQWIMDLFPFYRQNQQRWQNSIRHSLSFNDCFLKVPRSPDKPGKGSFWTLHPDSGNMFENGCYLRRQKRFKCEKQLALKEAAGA
Oligonucleotide,E-score
GTGCTATA,0.251
AGTTAACA,0.262
AACTTATT,0.267
ATATTATC,0.271
ATAGATAA,0.297
AAGTCATA,0.292
TACACACA,0.428
ACTATAGT,0.34
AACTCACA,0.256
ATCTAACA,0.312
AGACAACT,0.27
GTCAATAA,0.297
TTACCGAA,0.263
AACCAATA,0.284
ATAACTAA,0.274
TATAGATA,0.311
ATGGTCAA,0.255

# Sample 2 — method: EMSA with sequencing; form: double-stranded DNA, one strand shown; matrix: in vitro; tested at: 10 and 20 nM; reference: negative control set to 0; reading: higher = stronger binding
# Target: Hepatocyte nuclear factor 3-alpha (Foxa1, Mus musculus, UniProt P35582, residues 1-468, full length assumed)
# Setting: whole designed probe, mean of two concentrations, ends assumed
# Construct (chain): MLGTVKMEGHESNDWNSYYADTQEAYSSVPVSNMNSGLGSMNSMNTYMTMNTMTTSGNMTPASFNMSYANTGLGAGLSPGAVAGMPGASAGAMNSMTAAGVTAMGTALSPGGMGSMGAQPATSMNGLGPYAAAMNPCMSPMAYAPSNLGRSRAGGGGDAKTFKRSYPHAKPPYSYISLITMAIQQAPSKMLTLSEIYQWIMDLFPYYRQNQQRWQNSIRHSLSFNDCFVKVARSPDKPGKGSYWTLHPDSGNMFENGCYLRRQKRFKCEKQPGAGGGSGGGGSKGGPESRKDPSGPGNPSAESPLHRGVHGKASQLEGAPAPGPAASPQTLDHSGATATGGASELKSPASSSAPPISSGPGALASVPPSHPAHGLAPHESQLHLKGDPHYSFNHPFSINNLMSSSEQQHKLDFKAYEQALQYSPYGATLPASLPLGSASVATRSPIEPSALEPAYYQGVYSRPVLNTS
Oligonucleotide,normalised bound fraction
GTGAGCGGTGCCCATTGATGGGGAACTAACCTGAGAGTATTTTTTGGTCGTACAGGAAGTGTATCACATCTTTGCTTGCAGGTGATTATTTTTCCTAATTTAATTAGGCCCATAAAATGTAAACAAGCAACTGGGGCTCAGTCATTATTAATTTAGAATATAGACTCAAGAGATGCTGGAACTATAAAGGCAGAAGAATGCATTCTTGACATAGGTAAATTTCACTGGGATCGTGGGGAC,0.335 ratio
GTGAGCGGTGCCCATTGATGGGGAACATCTTCCCCCTCTTCCTTGCCCCACCAGCTCACCTTCCCGGGTTATTTGCAGATAGGAAAATAAATAAAGCCGGCATTCGTTAACCCTCTTCACGCGCATACTGCTGTTTGCTCTGCATCTAACATGGTCCTTACGCGACGCCAGGCTCCGGGAGAGCAAAGCACCGTGTCAGGCGCATGATCCGGGCTCGCCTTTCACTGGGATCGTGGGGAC,0.351 ratio
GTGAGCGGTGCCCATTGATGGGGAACATGTGCTAAAAATACAAGACTTGCTTACGCAGAGAGCCGGGAGCTATGTTCCAGTGAGGGTGGAAACAAAAGCCTCAGTATAAGACTGTCAGGTGTTTACACAAGCGTCTGGTTTGCTCATGTGGCAACACGAGGTTGCTGGACTCCACATGCTGAGGCTCAAAGTAGAAATCACTGATCTTATGTCACATATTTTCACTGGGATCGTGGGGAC,0.409 ratio
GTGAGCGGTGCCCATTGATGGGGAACATCTTCCCCCTCTTCCTTGCCCCACCAGCTCACCTTCCCGGGTTATTTGCAGATAGGAAAATAAATGCCGAGAACATTCGTTAACCCTCTTCTGGCGCAAACTGCTGTTTGCTCTGGATGAATCATGGTCCTTTGGCGACGCCAGGCTCCGGGAGAGCAAAGCACCGTGTCAGGGCCATGATCCGGGGTGGCCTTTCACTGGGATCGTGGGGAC,0.199 ratio
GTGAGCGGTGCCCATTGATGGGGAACAGAACACCATGTGTAGGGAACCTGAATTTTTTGTAATAGGCCGTAAGCATGCCTGCCCTTTGGCCTGGAAAGAGACACTATATCTTCCAGGGCTGTTTGCTGTGTAAACATCCTTGAAAAGACAGCCTTGAACAAAGGGCAGTCAATAGTTCTACTCAAAAGACATGGAGAAATGCAAAAGACCCATGGAGATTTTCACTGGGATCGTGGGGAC,0.366 ratio
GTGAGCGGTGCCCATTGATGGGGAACAAGACAAATAAGAAAGATATTTCCTCCCCTACATTATCTGGATTTCTCCATGAAACACCCATTATGGCATAGACAAATTGGTTACTATCTTAAGTAATCTTTGGTAGGAAAACTTTGAAAAGGCAACTGAGCTTACTTTTGGGTCATGTGTCACCTGTCAAAAATATAACTCTGGAAAAACTGTAAAGTTGGGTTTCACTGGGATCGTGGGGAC,0.109 ratio
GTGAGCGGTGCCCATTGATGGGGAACAGGTGAATTGGCTGCTTCCATCCTGGCTTGGAACTTCAGACATAGAAGCCTTGGGACTTTCTCTGACTCATGCCAGGACTTTCTCCAGATTCAGCAAACAAGCATCTCTGTGGATCACGTGACCTTAGCCAGGGATGTTGGTGAAACTGTGTGTTGGTCTAGGTACCTAGCCCATGCTAGGTGCTCATCGAATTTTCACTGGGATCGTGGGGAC,0.0853 ratio
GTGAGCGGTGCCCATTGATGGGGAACAACTAACCCAGTCCCAGGAGAACTGCATTAATCCCTTTGTGAGGGCGAAGTCCCTATGACTCACCTCTTAAAGGTCCTATTACCTCTCCATACTGTTGACATTGGCAATTAAATTTCAACATGAGTTTTGGTAGAGACAAACCACATCCAAACCATAGCAATAGTAAAGGTGTCCCCTGCTCCCCTCCTCCACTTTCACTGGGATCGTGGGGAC,0.206 ratio

# Sample 3 — method: DHFR PCA, deep sequencing; matrix: yeast; with: (+)-ABA 58 µM; reference: wild-type fitted maximum; reading: higher = stronger binding
# Target: ABI1, truncated, D143A, DHFR fusion (Arabidopsis thaliana)
# Setting: methotrexate growth selection, single substitutions
# Starting sequence: PYL1, truncated, DHFR fusion (Arabidopsis thaliana); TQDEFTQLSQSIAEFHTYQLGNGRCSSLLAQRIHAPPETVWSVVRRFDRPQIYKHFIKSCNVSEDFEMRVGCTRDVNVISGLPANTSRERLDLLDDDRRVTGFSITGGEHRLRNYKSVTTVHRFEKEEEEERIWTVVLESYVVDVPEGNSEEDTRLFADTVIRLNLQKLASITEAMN; partner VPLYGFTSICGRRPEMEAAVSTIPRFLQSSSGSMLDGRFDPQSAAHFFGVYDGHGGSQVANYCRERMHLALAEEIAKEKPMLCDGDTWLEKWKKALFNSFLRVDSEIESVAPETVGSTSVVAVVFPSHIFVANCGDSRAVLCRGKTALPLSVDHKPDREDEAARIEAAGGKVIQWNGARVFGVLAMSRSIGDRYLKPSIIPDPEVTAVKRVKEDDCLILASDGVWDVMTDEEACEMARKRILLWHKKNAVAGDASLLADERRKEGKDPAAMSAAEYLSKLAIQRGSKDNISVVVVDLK
Change,relative binding score [%]
R49S,81.1
R99Y,102
P146H,16.9
L93G,11
D159A,41.3
E4A,82.6
I172T,72.8
P83W,9.09
L164Q,85.9
D65M,74.2
R90E,56.7
L28H,15.5
E131V,89.8
I52G,67.4
V143W,-0.819
S9N,69
L112I,8.7
N61D,82.8

# Sample 4 — target: CCNF, cyclin fold, Cln2 fusion (human); method: yeast growth competition, sequencing; matrix: yeast; setting: strong parent motif; reference: not given; reading: higher = stronger binding
# Starting sequence: BRCA2 docking peptide (human); PSIKRNLLNEFDR
Change,normalised enrichment score
L8G,1.33
S2K,2.35
R13Q,2.61
F11E,0.239
L8D,2.33
R13C,1.59
F11M,1.1
R13L,2.99
N9A,5.14
P1G,2.49
I3V,4.75
N6I,0.89
R5V,0.738
R13E,2.09
L7P,-0.00806
L7G,0.49
I3D,-0.814
R5Q,0.443
R5A,-0.0836
K4A,4.67

# Sample 5 — method: protein-binding microarray; form: double-stranded DNA, one strand shown; matrix: in vitro; tested at: 250 nM; setting: 60-bp whole probe; with: salmon DNA 0.4 mg/ml; reference: random background probes; reading: higher = stronger binding; shared flanks, not repeated: GCCTAGCAC … GTCTTGATTCGCTTGACGCTGCTG
# Target: Interferon regulatory factor 5, full length, phosphomimetic (IRF5, Homo sapiens, UniProt Q13568-2, residues 1-514, K96S/S451D/S453D/S456D/S462D)
Oligonucleotide,log fluorescence [z-score]
TTAGGTCTCCTTTTCCTATAGTGCTAG,0.543
GAAGGACTGCTACTGCTGACGTGCTAG,-0.621
TTAGATATCAGTAACGATTAGTGCTAG,1.28
TCTCCTCTAGGTTCTCTGAGAGTGCTA,-0.117
TTAGATATCGGGACCGGATTAGTGCTA,1.19
GTGTTATTAAAACTTCATGAAGTGCTA,0.299
GAAGAACTGAGTATCGAGACGTGCTAG,2.03
GACGGTATCGGGACTTGGGACGTGCTA,1.02
GACTTTTTAGATATCTTTTTGTGCTAG,0.88
GACGATATCGGGTTTCGGGACGTGCTA,3.95
GACGGTATCGGTATTGGGACGTGCTAG,5.42
GACGAACTGGGGACTCGAGACGTGCTA,-0.511
GACGGTTTCAGGTTTCGGGACGTGCTA,4.56
GACGATATCAGACTGGAGCCGTGCTAG,-0.122
GACGAACTGGGGTTTCGGGACGTGCTA,1.68
TCCCCTCTCATTCCAATTCTGTGCTAG,-0.114
CTCTACATGTGTTTAAGAATGTGCTAG,0.36
CTCTGTCCCCCTTTTATATTGTGCTAG,-0.0632
TTAGGTTTCGGGACTGGTTTAGTGCTA,6.69
GCACGTGACTGTTTCCCAATGTGCTAG,0.0956
TCAGGTCTCGGACTGGGTTAGTGCTAG,-0.462
TCACCTCTTTCTCTGCTACTGTGCTAG,1.32
GGGCATTTTTTTATCAATCAGTGCTAG,0.445
GACGGTCTCGGTTTCGTGACGTGCTAG,1.19

# A few entries again (sample 4):
Change,normalised enrichment score
L8G,1.33
L7P,-0.00806
R5Q,0.443
F11E,0.239
R13C,1.59
